Measured values collected from several papers.
A part holds a random share of what one study measured.

Series 1
Target: Interferon regulatory factor 3, full length, phosphomimetic (IRF3, Homo sapiens, UniProt Q14653, residues 1-427, S386D/S396D/S398D/S402D/T404D/S405D)
UniProt Q14653, sequence (whole entry, unmodified, looked up): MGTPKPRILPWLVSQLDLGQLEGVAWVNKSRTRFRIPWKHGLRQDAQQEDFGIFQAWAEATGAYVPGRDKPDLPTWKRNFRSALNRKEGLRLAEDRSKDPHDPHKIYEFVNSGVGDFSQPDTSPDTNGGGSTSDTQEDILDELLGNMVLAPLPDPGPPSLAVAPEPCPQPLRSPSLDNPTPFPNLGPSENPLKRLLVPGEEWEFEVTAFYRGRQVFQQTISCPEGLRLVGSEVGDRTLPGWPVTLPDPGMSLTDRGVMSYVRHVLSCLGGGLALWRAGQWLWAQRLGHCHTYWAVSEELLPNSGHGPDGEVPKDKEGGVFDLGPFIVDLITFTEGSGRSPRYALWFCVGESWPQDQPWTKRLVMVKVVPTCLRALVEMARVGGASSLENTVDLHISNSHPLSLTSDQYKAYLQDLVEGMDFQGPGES
Technique: protein-binding microarray
Molecule type: double-stranded DNA, one strand shown
Matrix: in vitro
Concentration: 2540 nM top
Setting: 60-bp whole probe
With: salmon DNA 0.4 mg/ml
Relative to: random background probes
Reading: higher = stronger binding
Endpoint: fitted relative affinity
Shared flanks, not repeated: GCCTAGCAC … GTCTTGATTCGCTTGACGCTGCTG
GACGGACTGCTACTGTTGACGTGCTAG: -0.55 z-score
TTAGTTATCAGTCTCGATTAGTGCTAG: 1.94 z-score
GACTAACTGGGGTTTCGAGACGTGCTA: 0.545 z-score
GACGAACTGAGTTTCGTGACGTGCTAG: 0.898 z-score
TTAGATTTCAGGCTCGATTAGTGCTAG: 0.486 z-score
TTAGATCTCACTCTCGATTAGTGCTAG: 0.773 z-score
TTAGGTCTCGGAATCGGTTAGTGCTAG: 1.01 z-score
TTAGGTTCCCTCTTCCTTTAGTGCTAG: 5.2 z-score
TCATCTTTCCCTGCCCCACTGTGCTAG: 1.67 z-score
TTAGGTTTCCTACAGCTTTAGTGCTAG: 2.51 z-score
TCACTAATGTTTTTTAAACTGTGCTAG: 0.271 z-score
GGAGTGGGAAGCTTCGCTCCGTGCTAG: -0.498 z-score
GACGGCTTCGGTTTCGGGACGTGCTAG: 3.19 z-score
TCTAATTTACTTTGGTTGGCGTGCTAG: -0.129 z-score
GACGGTAGCGGTTTCGGGACGTGCTAG: 3.11 z-score
GACGATTCCAGTTTCAAGACGTGCTAG: 2.25 z-score
TTTTCTTTTCATTACTGCATGTGCTAG: 6.29 z-score
ATAGGTTTCCTACTGCTTTAGTGCTAG: 4.91 z-score
GGCCAAACAGTATTAAACTCGTGCTAG: -0.285 z-score

Series 2
Target: RING finger protein unkempt homolog, zinc fingers 1-6, GST-SBP tag (UNK, Homo sapiens, UniProt Q9C0B0, residues 30-357)
Technique: RNA Bind-n-Seq
Molecule type: RNA
Matrix: in vitro
Concentration: not given
Setting: RNA with constant flanks, human and mouse sites, ends assumed
Relative to: input RNA pool
Reading: higher = stronger binding
Endpoint: bound/input enrichment
Target sequence (chain): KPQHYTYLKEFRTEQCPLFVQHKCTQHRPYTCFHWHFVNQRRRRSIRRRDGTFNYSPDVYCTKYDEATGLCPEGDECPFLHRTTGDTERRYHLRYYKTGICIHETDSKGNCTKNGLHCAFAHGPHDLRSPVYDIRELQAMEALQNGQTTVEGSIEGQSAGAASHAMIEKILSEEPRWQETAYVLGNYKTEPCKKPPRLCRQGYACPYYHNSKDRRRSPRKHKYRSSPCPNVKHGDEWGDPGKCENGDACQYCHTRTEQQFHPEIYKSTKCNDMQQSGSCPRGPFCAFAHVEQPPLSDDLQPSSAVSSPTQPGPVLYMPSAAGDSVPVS
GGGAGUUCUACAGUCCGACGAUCGAGGAAGGCUGGUGGAAAGAAGACCAACUGCAGAGAUUGGGCGAGACGUCUAGAGGCGGGGCUGAUGAGGAAGCCUGACAUUUCCCUUGACCGAGAGGAUCGUGAUGCAUUUCAGAUGAGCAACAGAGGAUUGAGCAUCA: 0.223 ratio
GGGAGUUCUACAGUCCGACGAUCGGUGCUACACGAAUCCCUGCGGUAAAAGAGAAGAUCAGCAAAUUUUUCGGUAAAGAACUUAGUACAACAUUAAAUGCUGAUGAAGCUGUCACUCGAGGCUGUGCAUUGCAGUGUGCCAUCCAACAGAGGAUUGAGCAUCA: 1.02 ratio
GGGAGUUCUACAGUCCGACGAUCAACAACUGGAAGAAUUUUUAGCUAAUAUUGGAACAAGCGUUCAGAAUGUUCGCAGGGAAAUGGACAGUGAUAUAGAGACCAUGCAACAGACAAUAGAGGAUUUGGAAGUAGCCAGUGAUCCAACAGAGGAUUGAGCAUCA: 3.12 ratio
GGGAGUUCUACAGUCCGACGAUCCUGUUGCCCAAACCACAGAUGCGUGGUCUUCUGGCCAAGCGUCUGCGGGUUCAUAUUGCUGGCGCAUUCAUUGUGGCCCUGGGAGUUGCCGCUGCCUAUAAGUUUGGCGUGGCUGAGCCACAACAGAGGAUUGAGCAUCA: 0.199 ratio
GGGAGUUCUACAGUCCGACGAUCGAUGUGAAAUUUUUCUUUUUGUUUCUGCUUUUUGGCACAUAAAUUGGCUAUUUCUUCUGGAGUGGAUAAGUACAACAGUGACAAAUACAUGGAACAGUAAAGAAGACCUUGCUCUUAAAUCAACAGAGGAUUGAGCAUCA: 0.225 ratio
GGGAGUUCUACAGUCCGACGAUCCGCCUGGACAUGUCCCAGAAUGUGUCCUUGGUCACUGCUGAACUGAGCAAGGACGCCCAGGCGUCAGCCGCCCCUGCAGCACCCUUGCCUGAGCGGAACUCUCUCAGUGCCAUCUUCAACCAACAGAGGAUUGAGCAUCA: 0.0509 ratio
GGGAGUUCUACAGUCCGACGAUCAUUUCUUUGCAAAUGGAAGAGUUUAAUACUGCAAUUUAUUCCAAUGAUGACUUACUUUCUUCUAAGGAAGACAAAAUGAAAGAAAGUGAAACAUUUUCCGAUUCAUCUCCCAUUGAGAUACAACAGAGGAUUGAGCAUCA: 0.0868 ratio
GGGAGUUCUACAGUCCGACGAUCGGAAAUUCAGGUAACUUGAAAAGCUCAGACAGAAAUCCUCCACUCAGUCCUCAGUCCUCUAUAGAUAGUGAGUUAAGUGCUUCAGAAUUAGAUGAAGAUUCAAUUGGAUCCAAUUAUAAGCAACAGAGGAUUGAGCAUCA: 4.05 ratio

Series 3
Target: Histone acetyltransferase KAT6A, both winged helices, GST fusion (KAT6A, Homo sapiens, UniProt Q92794, residues 1-181)
Technique: protein binding microarray
Molecule type: double-stranded DNA, one strand shown
Matrix: in vitro
Concentration: not given
Setting: 8-mer, flanks averaged, mean of 2 arrays, mostly near background
Relative to: not given
Reading: higher = stronger binding
Endpoint: E-score
Target sequence (chain): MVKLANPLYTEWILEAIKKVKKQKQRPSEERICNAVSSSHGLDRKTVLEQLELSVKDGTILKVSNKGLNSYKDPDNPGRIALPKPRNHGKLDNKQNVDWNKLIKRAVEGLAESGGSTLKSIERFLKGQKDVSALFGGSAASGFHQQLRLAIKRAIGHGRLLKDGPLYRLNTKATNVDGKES
TCCTTAGA: -0.159
GGGCTACA: -0.0475
CGAGAGTC: -0.128
AAAGTGTA: -0.0787
ACTCCTTA: -0.118
CCGAACGC: 0.215
AGCCGGTA: 0.187
GAACAGAC: 0.00737
CGTAATAA: 0.0656
CGGCTCGA: 0.169
GCAACTAA: -0.00899
CCGTTTTC: 0.156
ATCTTCTC: -0.0298
ATCTTATA: -0.206
ACACGGGT: 0.209
TATCCTCA: -0.119
ACCTGGCT: -0.109
CAAACTCG: -0.0418
AAAATGAT: -0.0264
ATTGAGAG: -0.0872
TGCGTCAA: 0.0191
TAGTTGAA: -0.0796
AGAACACA: -0.237
ATCTCTGC: -0.17
CCCTTAGC: 0.0118

Series 4
Target: Prothrombin, mature alpha-thrombin (F2, Homo sapiens, UniProt P00734)
Technique: aptamer microarray, sandwich
Molecule type: DNA with 2'F-ANA
Matrix: in vitro
Concentration: 200 nM
Setting: whole 15-mer aptamer, many near background
With: Cy3 exosite-II aptamer, 400 nM
Reading: higher = stronger binding
Endpoint: mean fluorescence intensity
Sequence: GGTTGGTGTGGTTGG
2'F-ANA at 2 3 5 6 10 15: 54.3 a.u.
2'F-ANA at 7 10 12 13: 245 a.u.
2'F-ANA at 4 5 6 9 11 12 14 15: 46.8 a.u.
2'F-ANA at 1 3 10 12: 116 a.u.
2'F-ANA at 2 3 4 5 8 10 12 13 14 15: 201 a.u.
2'F-ANA at 1 2 4 5 6 7 8 10 11 13 15: 55.5 a.u.
2'F-ANA at 3 8 11 12 14: 754 a.u.
2'F-ANA at 3 5 6 11 12 14 15: 56.6 a.u.
2'F-ANA at 3 5 11: 121 a.u.
2'F-ANA at 1 2 3 7 9 11 14: 66.6 a.u.
2'F-ANA at 4 8 15: 402 a.u.
2'F-ANA at 1 3 4 6 7 8 10 11 12 13: 97.6 a.u.
2'F-ANA at 2 6 7 8 9 13: 280 a.u.
2'F-ANA at 2 3 4 11 14 15: 247 a.u.
2'F-ANA at 1 3 5 6 9 11 15: 56.5 a.u.
2'F-ANA at 1 3 4 5 7 8 9 14: 48.9 a.u.
2'F-ANA at 1 3 5 11 12: 109 a.u.
2'F-ANA at 1 2 4 8 14: 59.2 a.u.
2'F-ANA at 1 2 6 7 10 12 14 15: 52.8 a.u.
2'F-ANA at 1 2 5 7 8 11 14: 46.5 a.u.
2'F-ANA at 4 8 10 11 12 13 15: 79.1 a.u.

A few entries again (series 4):
2'F-ANA at 2 3 4 5 8 10 12 13 14 15: 201 a.u.
2'F-ANA at 1 2 4 5 6 7 8 10 11 13 15: 55.5 a.u.
2'F-ANA at 3 8 11 12 14: 754 a.u.
2'F-ANA at 3 5 6 11 12 14 15: 56.6 a.u.
2'F-ANA at 3 5 11: 121 a.u.
2'F-ANA at 1 2 3 7 9 11 14: 66.6 a.u.
2'F-ANA at 4 8 15: 402 a.u.
2'F-ANA at 1 3 4 6 7 8 10 11 12 13: 97.6 a.u.
2'F-ANA at 2 6 7 8 9 13: 280 a.u.
2'F-ANA at 2 3 4 11 14 15: 247 a.u.
2'F-ANA at 1 3 5 6 9 11 15: 56.5 a.u.
2'F-ANA at 1 3 4 5 7 8 9 14: 48.9 a.u.
